Measurements pooled from the literature.
Several values in a cell are separate wells, animals, samples, runs or records. ± gives the spread as reported.
folP: Dihydropteroate synthase (folP, Bacteria, UniProt P0AC13)
T1: RNA aptamer; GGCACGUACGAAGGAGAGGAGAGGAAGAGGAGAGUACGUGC
T2: RNA aptamer; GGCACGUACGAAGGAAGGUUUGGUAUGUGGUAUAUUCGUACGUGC
T3: RNA aptamer; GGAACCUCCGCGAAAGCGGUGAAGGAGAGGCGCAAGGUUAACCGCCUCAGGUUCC

| Structure (SMILES) | target | assay | test system | setting | scale | endpoint | result |
| --- | --- | --- | --- | --- | --- | --- | --- |
| COc1cc(Nc2nccc(-c3cnn4nc(OC)ccc34)n2)cc(C(F)(F)F)c1 | FLT3 (Homo sapiens, UniProt P36888, K663Q) | binding | – | 1 µM | – | remaining binding | 96% |
| CCC1(CC)C(=O)N(c2cccc(CCC(=O)O)c2)C1=O.O=C(O)C(F)(F)F | DPP9 (Homo sapiens, UniProt Q86TI2) | enzyme activity, inhibitor | – | 5 µM | – | activity vs control | 17% |
| COC(=O)[C@@]1(Cc2ccccc2)C=C(C(=O)OC(C)(C)C)C(=O)CC1 | MAPK14 (Homo sapiens, UniProt Q16539, C162A) | peptide binding, fluorescence polarization | – | 500 µM | – | fraction bound | 0.108 |
| CC[C@@H](C)[C@@H](NC(=O)[C@@H](Cc1ccc(O)cc1)NC(=O)[C@H]1CCCN1C(=O)[C@@H](CCCNC(=N)N)NC(=O)[C@H](N)Cc1c[nH]cn1)C(=O)N[C@H](C)C(=O)N[C@H](Cc1c[nH]cn1)C(=O)N[C@H](CCCNC(=N)N)C(=O)N[C@@H](C(=O)N[C@H](Cc1ccc(O)cc1)C(=O)N[C@H](CO)C(=O)N[C@H](Cc1ccccc1)C(=O)NCC(=O)NCC(=O)NCC(=O)N[C@@H](CCCCNC(=O)CCCC[C@@H]1SC[C@@H]2NC(=O)N[C@@H]21)C(N)=O)C(C)C | CD274 (Homo sapiens, UniProt Q9NZQ7) | flow cytometry | hPD-L1-expressing cells | concentration not given | – | binding rate | 15% and 14.7% |
| Cn1nnnc1NCc1nn(C)c2nc(N)[nH]c(=O)c2c1=O | folP | CETSA HiBiT | Escherichia coli, whole cells | concentration not given | relative to: whole cell over lysate ΔTm | target engagement efficiency | 21.2% |
| CCCCCC=CC=C1C(=O)C=CC1CC=CCCCC(=O)O (centres unmarked) | Methylosome protein WDR77 (WDR77, Homo sapiens, UniProt Q9BQA1) | competitive isoTOP-ABPP, item: WDR77 cysteine peptide | Ramos soluble proteome | 100 µM, added: iodoacetamide probe | relative to: DMSO over compound-treated, higher = stronger cysteine blockade | isoTOP-ABPP competition ratio | 3.1 |
| CC1(C)CC[C@@]2(CO)C(=C3C=C[C@@H]4[C@@]5(C)CC[C@H](O)[C@@](C)(CO)[C@@H]5CC[C@@]4(C)[C@]3(C)C[C@@H]2O)C1 | SIRT1 (Homo sapiens, UniProt Q96EB6) | binding, microscale thermophoresis | – | 49.6 nM | – | MST normalised fluorescence | 910 a.u. |
| CCCCCCCO[C@H]1O[C@H](CO)[C@@H](O)[C@H](O)[C@@H]1O | Type 1 fimbrin D-mannose specific adhesin, lectin domain (fimH, Escherichia coli K-12, UniProt P08191) | binding, isothermal titration calorimetry | – | 15 °C, global fit of two titrations | – | -TΔS | -0.359 kcal/mol |
| CCN(CC)C(CO)c1cccc2c(C)c(C)oc12 (centres unmarked) | LPAR1 (Homo sapiens, UniProt Q92633, W271F) | G-protein dissociation, agonist, NanoBiT | HEK-293T | 100 nM, W271F mutant | relative to: baseline luminescence | fold change | 0.733 and 0.681 and 0.445 and 0.727 and 0.675 and 0.825 |
| Cn1nc(C(=O)O)c(=O)c2c(=O)[nH]c(N)nc21 | folP | CETSA HiBiT | Escherichia coli, whole cells | concentration not given | relative to: DMSO | melting temperature shift | 2.05 °C |
| CC[C@H](C)[C@H](NC(=O)[C@H](CC(=O)O)NC(=O)[C@H](CCCNC(=N)N)NC(=O)[C@H](CC(C)C)NC(=O)[C@@H](NC(=O)[C@H](CCC(N)=O)NC(=O)[C@H](CC(C)C)NC(=O)[C@H](CO)NC(=O)[C@H](CCCNC(=N)N)NC(=O)[C@H](CCC(=O)O)NC(=O)[C@H](CCCNC(=N)N)NC(=O)[C@H](Cc1c[nH]cn1)NC(=O)[C@H](CCC(=O)O)NC(=O)[C@H](CC(C)C)NC(=O)[C@H](CCC(N)=O)NC(=O)[C@H](CCC(=O)O)NC(=O)[C@H](CCC(N)=O)NC(=O)[C@H](CO)NC(=O)[C@@H](N)CC(C)C)[C@@H](C)O)C(=O)N[C@@H](CCC(N)=O)C(=O)N[C@@H](CCCNC(=N)N)C(=O)N[C@@H](CCSC)C(=O)O | Catenin beta-1, residues 141-305 (CTNNB1, Homo sapiens, UniProt P35222) | ITC | – | concentration not given, 25 °C | – | binding stoichiometry | 0.98 |
| Cn1nc(CCCC(=O)O)c(=O)c2c(=O)[nH]c(N)nc21 | folP | CETSA HiBiT | Escherichia coli, cell lysate | concentration not given | relative to: DMSO | melting temperature shift | 13.7 °C |
| C=C(NC(=O)[C@H](C)NC(=O)c1csc(-c2cccnc2)n1)C(=O)OC | PRDX3 (Homo sapiens, UniProt P30048, A142E/C229S/S139E) | MALDI-TOF, item: CP adduct | PRDX3 C229S | 200 µM, 37 °C | – | adduct formation rate | 0.024 ± 0.001 min⁻¹ |
| Nc1ncnc2c1ncn2C1OC(COP(=O)(O)O)C(O)C1O (centres unmarked) | Fructose-1,6-bisphosphatase 1 (Mus musculus, UniProt Q9QXD6) | – | – | untagged wild type | – | Hill coefficient | 1.7 ± 0.09 |
| O=C1c2sc(-c3ccc(N4CCC(F)C4)nc3F)nc2CCN1c1cccnc1 (centres unmarked) | AVPR2 (Homo sapiens, UniProt P30518) | ligand displacement, radioligand | – | 1 µM | – | inhibition | -6% |
| Cn1nc(COC(=O)c2ccccc2)c(=O)c2c(=O)[nH]c(N)nc21 | folP | CETSA HiBiT | whole cells | – | – | melting temperature | 68.5 °C |
| CC[C@H](C)[C@H](NC(=O)[C@H](Cc1c[nH]cn1)NC(C)=O)C(=O)N[C@@H](CCCCN)C(=O)N[C@H](C(=O)N[C@@H](Cc1c[nH]cn1)C(=O)N[C@@H](CC(C)C)C(=O)N[C@@H](CC(=O)O)C(=O)N[C@@H](CCC(=O)O)C(=O)N[C@@H](CCC(=O)O)C(=O)N[C@H](C(=O)NCC(=O)N[C@@H](CCC(=O)O)C(=O)N[C@@H](CCCCN)C(=O)N[C@H](C(=O)N[C@@H](CO)C(=O)N[C@H](C(=O)N[C@H](C(=O)N[C@@H](CC(C)C)C(=O)N[C@@H](CC(=O)O)C(=O)N[C@H](C(N)=O)C(C)C)[C@@H](C)O)[C@@H](C)CC)[C@@H](C)O)[C@@H](C)O)[C@@H](C)O | Kelch-like ECH-associated protein 1, Kelch domain (KEAP1, Homo sapiens, UniProt Q14145) | ITC | – | concentration not given | – | binding stoichiometry | 0.96 |
| CCCCCC(O)/C=C/C=O (centres unmarked) | DNA replication licensing factor MCM5 (Homo sapiens, UniProt P33992) | acylphosphate-ATP probe SILAC-ABPP, item: MCM5 | ZAK-transfected HEK293T | 100 µM, added: acylphosphate-ATP probe | relative to: DMSO over compound-treated | probe labelling ratio | 0.63 |

| Structure (SMILES) | target | assay | test system | setting | scale | endpoint | result |
| --- | --- | --- | --- | --- | --- | --- | --- |
| NCc1cc2c(cc1F)C(=O)N(C1CCC(=O)NC1=O)C2 (centres unmarked) | DNA-binding protein Ikaros (Homo sapiens, UniProt Q13422) | degrader, Western blot | NCI-H929 | 24 h | – | Dmax | 1% |
| Fc1ccc(-c2cn(CSc3ccccc3)nn2)c(F)c1 | Protein Mdm4 (MDM4, Homo sapiens, UniProt O15151) | thermal stability, DSF | – | 30 µM | – | ΔTm | 1.96 °C |
| CCOC(=O)Cc1n[nH]c2nc(N)[nH]c(=O)c2c1=O | folP | CETSA HiBiT | Escherichia coli, cell lysate | concentration not given | relative to: DMSO | melting temperature shift | 13.7 °C |
| Fc1ccc(Nc2nc(NC3CCCCC3)c3cc(C(F)(F)F)ccc3n2)cc1F | ADRB2 (Homo sapiens, UniProt P07550, F133L) | β-arrestin2 recruitment, antagonist, BRET | – | mutant F133L | relative to: isoprenaline maximal response | maximal inhibition | 12% |
| O=C(CCl)N[C@@H](Cc1ccccc1)C(=O)N1CCCC[C@H]1C(=O)NCCc1c[nH]c2cc(Cl)cc(Cl)c12 | PIN1 (Homo sapiens, UniProt Q13526) | protein denaturation, thermal shift | – | – | – | second transition share | 30% |
| CC(=O)N[C@@H](CCC(=O)O)C(=O)N[C@@H](CCC(=O)O)C(=O)N[C@@H](CCC(=O)O)C(=O)N[C@@H](Cc1c[nH]c2ccccc12)C(=O)N[C@@H](C)C(=O)N[C@@H](CCCNC(=N)N)C(=O)N[C@@H](CCC(=O)O)C(=O)N[C@@H](C)C(=O)NCC(=O)N[C@@H](C)C(=O)N[C@@H](CCC(N)=O)C(=O)N[C@@H](CC(C)C)C(=O)N[C@@H](CCCNC(=N)N)C(=O)N[C@@H](CCCNC(=N)N)C(=O)N[C@@H](C)C(=O)N[C@@H](C)C(=O)N[C@@H](CC(=O)O)C(=O)N[C@@H](CC(=O)O)C(=O)N[C@@H](CC(C)C)C(=O)N[C@@H](CC(N)=O)C(=O)N[C@@H](C)C(=O)N[C@@H](CCC(N)=O)C(=O)N[C@@H](Cc1ccc(O)cc1)C(=O)N[C@@H](CCC(=O)O)C(=O)N[C@@H](CCCNC(=N)N)C(=O)N[C@@H](CCCNC(=N)N)C(=O)N[C@@H](CCCNC(=N)N)C(N)=O | Induced myeloid leukemia cell differentiation protein Mcl-1 homolog, residues 152-308 (Mus musculus, UniProt P97287) | binding, SPR | – | 0.2% DMSO | – | koff | 0.0138 s⁻¹ |
| Cc1ccc2c(c1)C(=Cc1sc3ccccc3[n+]1C)C=CN2C | T1, RNA aptamer | fluorescence titration | – | – | – | Kd | 1.97 nM |
| N#Cc1c(N)nc2c(c1-c1ccc(CO)o1)Cc1cc(O)ccc1-2 | Thymocyte selection-associated high mobility group box protein TOX (Homo sapiens, UniProt O94900) | anti-TOX IP-MS, item: S100A7 | MOLT-4 | 10 µM | relative to: DMSO | fold change | -5.79 |
| COc1ccc(-c2ccc3c(c2)C(=Cc2sc4ccccc4[n+]2CC(=O)NCCOCCOCCOCCNC(=O)CCCC[C@@H]2SC[C@@H]4NC(=O)N[C@@H]42)C=CN3C)cc1 | T2, RNA aptamer | fluorescence titration | – | – | – | Kd | 31.7 nM |
| CN(C)c1ccc2c(-c3ccccc3C(=O)[N-]S(=O)(=O)N(C)C)c3ccc(=[N+](C)C)cc-3oc2c1 | T3, RNA aptamer | RNase T1 footprinting | – | – | – | binding | binds |
| COc1ccccc1-c1ccncc1C(=O)Nc1nnc(OCc2ccc(Cl)cc2)s1 | RECQL5 (Homo sapiens, UniProt O94762) | ATPase activity, ADP-Glo | – | 3.8 µM, 1 h | – | remaining activity | 101% |
| COc1ccccc1CCN1CNc2c(c(=O)[nH]c(=O)n2-c2cccc(Cl)c2C)C1 | P2X purinoceptor 7 (Ailuropoda melanoleuca, UniProt G1M6C4) | ATP-evoked current, inhibitor, whole-cell patch clamp | HEK293 transfected | 1 µM | relative to: ATP alone | inhibition ratio | 0.68 and 0.84 and 0.57 and 0.66 |
| CC(C)[C@@H]1NC(=O)[C@H](Cc2ccccc2)NC(=O)CSC[C@@H](C(N)=O)NC(=O)[C@H](CCC(=O)O)NC(=O)[C@H](CO)NC(=O)[C@H](Cc2c[nH]c3cccc(Cl)c23)NC(=O)[C@H](C2CCCCC2)NC(=O)[C@H](C(C)C)NC(=O)[C@H](Cc2ccc(O)cc2)NC(=O)[C@H](CC(=O)O)NC(=O)[C@H](Cc2c[nH]c3ccccc23)NC(=O)[C@H](Cc2ccc(N)nc2)NC(=O)[C@H](Cc2c[nH]c3ccc(Cl)cc23)NC(=O)[C@H](CCC(=O)O)NC1=O | Interleukin-1 receptor-like 2 (IL1RL2, Homo sapiens, UniProt Q9HB29) | reporter gene (SEAP), inhibitor, HEK-Blue IL-36R reporter | HEK-Blue IL-36R cells | 0.005 µM, 6 h, added: IL-36γ 0.1 ng/mL | – | remaining activity | 98.3% |
| Cn1c(=O)n(C2CCC(=O)NC2=O)c2ccc(C3CCN(CC(=O)Nc4cccc(CS(=O)(=O)N5CC[C@H](Nc6cccc(-c7sc(C(=O)O)c(OCC(=O)O)c7Cl)c6)CC5(C)C)c4)CC3)cc21 (some centres unmarked) | PTPN1 (Homo sapiens, UniProt P18031) | degrader, bio-layer interferometry | – | 125 nM, biotinylated protein immobilised | higher = more binding | BLI binding response | 0.241 a.u. |
| CCCCCCCCCCCCOc1c(O)cc(C(=O)OC2Cc3c(O)cc(O)cc3OC2c2cc(O)c(O)c(O)c2)cc1O (centres unmarked) | Albumin (ALB, Homo sapiens, UniProt P02768) | Scatchard plot | – | concentration not given, added: 10 µM HSA | – | number of binding sites | 1.36 |
| Cn1nc(CO)c(=O)c2c(=O)[nH]c(N)nc21 | folP | CETSA HiBiT | whole cells | – | – | melting temperature | 67.2 °C |
| C[C@@H](Nc1nc(N[C@H](C)C(F)(F)F)nc(-c2cccc(Cl)n2)n1)C(F)(F)F | Isocitrate dehydrogenase [NADP], mitochondrial, heterodimer with wild-type (IDH2, Homo sapiens, UniProt P48735, R172K) | reverse reaction | – | 1 h preincubation, mutant | – | maximum inhibition | 98.8 ± 1.2% |
